Earlier results that unrelated publications cite.
Compare with care: the assays were run in different laboratories. ± marks the error that the study gave.
Sequence of UniProt P41143 (whole entry, looked up): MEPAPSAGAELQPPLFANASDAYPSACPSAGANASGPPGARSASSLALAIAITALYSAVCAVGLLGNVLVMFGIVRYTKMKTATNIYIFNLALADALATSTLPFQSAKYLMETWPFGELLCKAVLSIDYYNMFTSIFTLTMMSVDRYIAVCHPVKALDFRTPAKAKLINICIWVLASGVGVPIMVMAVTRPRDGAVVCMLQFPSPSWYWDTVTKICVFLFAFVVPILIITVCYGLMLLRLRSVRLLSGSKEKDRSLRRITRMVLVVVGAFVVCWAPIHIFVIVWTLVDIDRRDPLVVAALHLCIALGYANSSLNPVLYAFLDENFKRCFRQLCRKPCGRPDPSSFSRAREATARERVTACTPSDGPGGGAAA
Sequence of UniProt P28566 (whole entry, looked up): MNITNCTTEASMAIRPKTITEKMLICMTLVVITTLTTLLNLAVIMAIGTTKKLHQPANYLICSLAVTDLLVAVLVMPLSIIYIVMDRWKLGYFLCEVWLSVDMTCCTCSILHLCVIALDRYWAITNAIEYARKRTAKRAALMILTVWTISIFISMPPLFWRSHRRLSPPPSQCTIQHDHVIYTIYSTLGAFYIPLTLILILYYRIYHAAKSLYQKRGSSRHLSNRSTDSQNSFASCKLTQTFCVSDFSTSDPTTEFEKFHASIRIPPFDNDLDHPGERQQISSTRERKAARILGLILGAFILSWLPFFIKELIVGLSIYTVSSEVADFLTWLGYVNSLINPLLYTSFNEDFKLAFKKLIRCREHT

| Substance | tested on | assay | system | setting | scale | endpoint | result |
| --- | --- | --- | --- | --- | --- | --- | --- |
| C[C@]1(c2nc3c(C(N)=O)cccc3[nH]2)CCCN1 | – | – | human, BRCA-mutated TNBC | 120 mg twice daily, then monotherapy, with: carboplatin plus paclitaxel | – | progression-free survival | 14.5 months |
| Nc1ncnc2c1nc(Br)n2C1OC2COP(O)(=S)OC2C1O (centres unmarked) | PDE10 | cyclic nucleotide hydrolysis, substrate or inhibitor, isothermal titration calorimetry | – | – | – | Km or Ki | 28100 nM |
| C=CC(C)=O | – | dopamine vesicular uptake | striatal synaptic vesicles | with: [3H]dopamine | – | IC50 | 717000 nM |
| CCCCCCCCCCCCCCCCOP(=O)([O-])OCC[N+](C)(C)C | – | – | human visceral leishmaniasis Nepal | concentration not given, 12 months | – | relapse rate | 20% |
| COC1C2OP(O)(=S)OCC2OC1n1c(Sc2ccc(Cl)cc2)nc2c(N)ncnc21 (centres unmarked) | PDE10 | cyclic nucleotide hydrolysis, substrate or inhibitor, isothermal titration calorimetry | – | – | – | Km or Ki | 2420 nM |
| COc1ccc(CC[C@H]2CCC[C@@H](CCc3ccc(OC)cc3)N2C[C@@H](O)CO)cc1 (relative stereo) | – | dopamine release, inhibitor | striatal slices | with: methamphetamine | – | IC50 | 10600 nM |
| Nc1nc2c(ncn2COCCO)c(=O)[nH]1 | – | three-week survival | mouse, intranasal HSV-1 infection | oral | – | ED50 | 22 mg/kg |
| CC(=O)c1c(C)c2cnc(Nc3ccc(N4CCNCC4)cn3)nc2n(C2CCCC2)c1=O | – | – | human HR+/HER2− metastatic breast cancer | dose not given, phase III trial, with: fulvestrant | – | progression-free survival | 9.2 months |
| Cc1nc(N(C)C(=O)Cc2ccc(-c3ccccn3)cc2)sc1S(N)(=O)=O | – | three-week survival | mouse, intranasal HSV-2 infection | oral | – | ED50 | 0.5 mg/kg |
| C[C@]12CC[C@@H]3c4ccc(O)cc4CC[C@H]3[C@@H]1CC[C@H]2O | – | – | rat transient MCA occlusion | subcutaneous implant, dose not given, 24 h pretreatment | – | survival rate | 71% |
| C=C(C)[C@@H]1CCC(C)=C[C@H]1c1c(O)cc(CCCCC)cc1O | – | – | mouse | oral, dose not given | – | inhibition of acetic acid writhing | inactive |
| tirzepatide | – | – | type 2 diabetes patients | 15 mg weekly, 40 weeks | – | HbA1c change from baseline | -2.3% |
| C=CCN(CC=C)CCc1c[nH]c2ccc(Br)cc12 | OPRD1 (Homo sapiens, UniProt P41143) | – | – | – | – | Ki | > 10000 nM |
| C[C@@]12CC[C@H](O)C[C@H]1CC[C@@H]1[C@@H]2CC[C@]2(C)[C@H]1CC[C@]21CO1 (single isomer, unassigned) | – | loss of swimming reflex | tadpoles | – | – | EC50 | 2710 ± 10 nM |
| CN1[C@@H](CCc2ccccc2)CCC[C@H]1CCc1ccccc1 | – | dopamine release, inhibitor | striatal slices | with: methamphetamine | – | IC50 | 650 nM |
| C=CCN(CC=C)CCc1c[nH]c2ccccc12 | HTR1E (Homo sapiens, UniProt P28566) | binding | cloned human receptor | with: [3H]5-HT | – | Ki | 378 nM |
| O=c1c2cc(O)c(O)cc2oc2cc(O)c([C@@H]3O[C@H](CO)[C@@H](O)[C@H](O)[C@H]3O)c(O)c12 | – | – | rat, alloxan-induced diabetes | dose not given, 21 days | reference: untreated diabetic rats | fasting blood glucose | decreased |
| COCCOCCOCCOc1ccc(C2=N[C@@](C)(C(=O)OC(C)C)CS2)c(O)c1 | – | – | bile duct-cannulated rats | subcutaneous, 300 µmol/kg | – | iron clearing efficiency | 22.1 ± 7.6% |
| CC1=CC(=O)[C@@H](O)[C@]2(C)[C@H]3[C@@H](O)[C@H](O)[C@@]4(C)OC[C@@]35[C@@H](C[C@@H]12)OC(=O)[C@H](O)[C@]54O | – | – | streptozotocin diabetic rats | dose not given | reference: untreated diabetic rats | blood glucose lowering | 88 ± 2.91% |
| C[C@]1(c2nc3c(C(N)=O)cccc3[nH]2)CCCN1 | – | – | human germline BRCA-mutated cancer | dose not given, phase I monotherapy, all doses | – | overall response rate | 29% |
